Results collected from several papers.
Every numbered part comes from another study and shows a few of its results, in no order. Positions count from the first letter of the parent shown.

Study 1
Target: Ras GTPase-activating protein-binding protein 1, C-terminal RGG region (G3BP1, Homo sapiens, UniProt Q13283)
Sequence of UniProt Q13283 (whole entry, looked up): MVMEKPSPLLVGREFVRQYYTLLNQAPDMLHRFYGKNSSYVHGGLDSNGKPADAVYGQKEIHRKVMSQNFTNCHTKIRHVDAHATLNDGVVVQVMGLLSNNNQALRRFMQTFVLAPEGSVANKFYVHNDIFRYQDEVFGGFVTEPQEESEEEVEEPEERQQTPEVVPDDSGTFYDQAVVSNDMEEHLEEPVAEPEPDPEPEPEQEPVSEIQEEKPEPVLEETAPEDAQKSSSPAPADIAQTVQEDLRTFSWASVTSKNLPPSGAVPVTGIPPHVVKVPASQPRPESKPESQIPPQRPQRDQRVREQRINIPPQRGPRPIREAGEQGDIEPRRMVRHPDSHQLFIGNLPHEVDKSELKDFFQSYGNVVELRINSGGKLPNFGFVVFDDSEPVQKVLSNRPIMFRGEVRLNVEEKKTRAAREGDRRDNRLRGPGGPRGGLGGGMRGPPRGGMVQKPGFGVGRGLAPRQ
Method: RNA Bind-n-Seq
Form: RNA
Medium: in vitro
Concentration: 1 µM
Setting: whole 134-nt RNA, ends assumed
Together with: 150 mM KCl
Relative to: input library
Reading: higher = stronger binding
Constant ends, left off below: GGGAGUUCUACAGUCCGACGAUC … UGGAAUUCUCGGGUGUCAAGG
Sequence	log2 enrichment
GCAGGAAGUAAAAACAAAUGGAAAUGCUUCGGAUAGUGCCAGGGGUGGGGGUUGCUAAGGAAAGGGUGGGAUGGGAGUGGGUAAAGAGUU	0.746
AAGUCCUGUGCUACACAUCGUAUGUACCGAAUCGGGAGGGAAAAAGGGAAAAAGGGAAAGUAUUAUGUUACGCCGUUCGGAUCUGCACUU	0.89
GAAAUACCAUCGGAAGACGAUGGGACGGUGCUGCUCUCCACGGUUACAGCCCAGUUUCCAGGGGCGUGUGGGCUUCGCUACAGGAAUCCA	-0.988
UCCUCAAGUCCUGUGCUACACAUCGUAUGUACCGAAUCGGGAGGAGGAGGGAAAGUAUUAUGUUACGCCGUUCGGAUCUGCACUUCCAGC	-1.18
UUAGGGUCAUGUGAAGGUGGUGCGCUACUUAGUCAAAGAAGUCAAUCAGUUUCCAUCAGAUUCUGAAUGUAUGAGAUACAUAGCAACCAU	-1.85
AGUCCUGUGCUACACAUCGUAUGUACCGAAUCGGAAAAAAAGGAAAGGUUUUUUUGGAAAGUAUUAUGUUACGCCGUUCGGAUCUGCACU	-2.39
GUCCUGUGCUACACAUCGUAUGUACCGAAUCGGGUUUUUUUGGGUUUUUUUGGGUGGGAAAGUAUUAUGUUACGCCGUUCGGAUCUGCAC	0.0541
GCAGGAACUAAAAACAAAUGGAAAUGCUUCGGAUAGUGGCAGGGGUGGGGGUUGCUAAGGAAAGGGUGGGAUGGGAGUGGGUAAAGAGUU	1.84
UCCUGUGCUACACAUCGUAUGUACCGAAUCAAAGUGUGUGUGUGUGUGUGUGUGUGUAAAAAAGUAUUAUGUUACGCCGUUCGGAUCUGC	1.27

Study 2
Target: RING finger protein unkempt homolog, zinc fingers 1-6, GST-SBP tag (UNK, Homo sapiens, UniProt Q9C0B0, residues 30-357)
Sequence of UniProt Q9C0B0 (30-357, looked up): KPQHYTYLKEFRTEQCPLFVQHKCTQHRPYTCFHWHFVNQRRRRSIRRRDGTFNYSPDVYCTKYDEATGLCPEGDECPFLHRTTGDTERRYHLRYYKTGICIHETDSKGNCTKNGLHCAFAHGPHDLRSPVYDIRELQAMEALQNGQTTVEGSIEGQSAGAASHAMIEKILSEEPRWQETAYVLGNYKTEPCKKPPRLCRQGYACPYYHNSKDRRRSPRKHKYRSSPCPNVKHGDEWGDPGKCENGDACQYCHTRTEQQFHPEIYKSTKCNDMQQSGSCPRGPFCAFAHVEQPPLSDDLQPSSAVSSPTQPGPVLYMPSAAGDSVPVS
Method: RNA Bind-n-Seq
Form: RNA
Medium: in vitro
Concentration: not given
Setting: RNA with constant flanks, human and mouse sites, ends assumed
Relative to: input RNA pool
Reading: higher = stronger binding
Constant ends, left off below: GGGAGUUCUACAGUCCGACGAUC … CAACAGAGGAUUGAGCAUCA
Sequence	bound/input enrichment
GUUGGUACCUCUGUAAAAACUUUAGUGUUAGCGUACAGCUCUGCAGUCUCCAGCAAAAUGGUUAGGCAGAUUUUAGAGCUUUGUCCUAACCUGGAACAUCUGGAUCUUACCCAGACCGAC	0.768 ratio
GUAAUGGACGUCAACACUGCUCUACAAGAGGUGCUGAAGACCGCCCUCAUCCACGAUGGCCUAGCACGUGGCAUACGCGAAGCUGCCAAAGCCUUAGACAAGCGCCAAGCCCAUCUGUGU	0.124 ratio
CAGGCCCUGGGCCUGCUCCUUGCCACCAACCGAACCGUGAAUGUAGGGCCCCCAGCCUCACCUCUGCCCCAGGACCAACAACACCCUGGUUUGGAGCUGGGAGGAAGAAGGGGGCCUGAG	0.132 ratio
CUUACACCAAGCAUAGGAGCCAAGGAGAAGGAGCAACAUGUAGCUUUAGUCACCUCUACAUUACCACCGUUACCUUUGCCUCCCAUGCUGCCUGAAGAUAAAGAAGCUGAUAGCUUACGA	0.171 ratio
CAAGCUGAACAGCUUGCUGCUGAGACUGAAGGCAUCUCUGAGCUUCCACAUGUAGAACGAAAUUUACAGGAGAUCCAGCAAGCUGGUGAGCGCCUGCGUUCCCGUACCCUCACACGCACA	0.326 ratio
UCAAGGCUGAGGAAAGAGAACGAUCUCUUUGAUAACUACAUGCAGCAGGAUGCUCACGAGUUCUUAAAUUAUUUGCUAAACACUAUUGCGGACAUCCUGCAGGAAGAGAAGAAACAGGAA	0.283 ratio
UAACCACAUCAAGAUGGUUGGAAAGCUGAAGCAGAACUUACUAUUGGCAUGUCUGGUGAUUAGUUCUGUGACUGUGUUUUACCUGGGCCAGCAUGCCAUGGAAUGCCAUCACCGGAUAGA	0.134 ratio

Study 3
Target: CCND1, cyclin fold, Cln2 fusion (human)
Method: yeast growth competition, sequencing
Medium: yeast
Setting: weak parent motif
Relative to: not given
Reading: higher = stronger binding
Parent: SLBP docking peptide (human); ARYKRKLLINDFG; partner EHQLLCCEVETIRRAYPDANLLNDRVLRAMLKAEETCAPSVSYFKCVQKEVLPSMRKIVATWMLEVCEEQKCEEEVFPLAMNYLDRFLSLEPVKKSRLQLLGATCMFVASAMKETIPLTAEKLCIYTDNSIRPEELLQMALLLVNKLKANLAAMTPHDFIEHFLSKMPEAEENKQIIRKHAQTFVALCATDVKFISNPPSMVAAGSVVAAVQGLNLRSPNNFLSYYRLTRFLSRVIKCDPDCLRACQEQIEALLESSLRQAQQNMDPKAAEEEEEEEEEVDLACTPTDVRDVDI
Change	normalised enrichment score
ARYKRKLGINDFG [L8G]	0.192
ARYKRKLDINDFG [L8D]	-0.255
AKYKRKLLINDFG [R2K]	0.363
ARYKRKLLIFDFG [N10F]	0.674
ARYKRNLLINDFG [K6N]	0.39
ARYKRKLLINDYG [F12Y]	0.535
ARYKRALLINDFG [K6A]	0.286
ARYKRKLLINDFH [G13H]	0.0758
SRYKRKLLINDFG [A1S]	0.312

Single results of other studies
Molecule	target	test	system	setting	scale	measurement	value
PhoQ, residues 284 288 289 292 302 303 AGHLVA	PhoP, residues 12 14 15 18 19 SEGLL (Escherichia coli, UniProt P23836)	Sort-seq, refers to: YFP reporter	E. coli	PhoQ-PhoP variant library, together with: 10 µM Mg2+	relative to: high Mg2+ state, higher = stronger signaling	fold induction	10.5

Some of these lines once more (study 3):
Change	normalised enrichment score
ARYKRNLLINDFG [K6N]	0.39
ARYKRKLDINDFG [L8D]	-0.255
ARYKRKLLINDFH [G13H]	0.0758
ARYKRALLINDFG [K6A]	0.286
